Measured values from different studies.
A part holds a random share of what one study measured.
UniProt P54646, sequence (whole entry, looked up): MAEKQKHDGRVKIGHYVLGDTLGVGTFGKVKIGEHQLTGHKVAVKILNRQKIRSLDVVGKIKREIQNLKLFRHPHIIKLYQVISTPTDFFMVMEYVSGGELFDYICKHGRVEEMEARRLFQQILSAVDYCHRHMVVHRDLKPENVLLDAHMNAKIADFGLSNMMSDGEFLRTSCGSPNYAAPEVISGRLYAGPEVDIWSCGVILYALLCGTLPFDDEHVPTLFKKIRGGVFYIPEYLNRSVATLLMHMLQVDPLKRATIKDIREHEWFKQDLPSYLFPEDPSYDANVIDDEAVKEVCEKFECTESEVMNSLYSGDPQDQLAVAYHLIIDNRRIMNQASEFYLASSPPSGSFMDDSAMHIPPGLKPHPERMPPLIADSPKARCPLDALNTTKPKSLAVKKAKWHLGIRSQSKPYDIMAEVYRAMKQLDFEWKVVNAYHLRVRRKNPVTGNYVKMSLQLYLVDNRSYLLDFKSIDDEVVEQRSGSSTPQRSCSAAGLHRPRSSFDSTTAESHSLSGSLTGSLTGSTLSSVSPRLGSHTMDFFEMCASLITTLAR
UniProt Q9H3Y6, sequence (whole entry, looked up): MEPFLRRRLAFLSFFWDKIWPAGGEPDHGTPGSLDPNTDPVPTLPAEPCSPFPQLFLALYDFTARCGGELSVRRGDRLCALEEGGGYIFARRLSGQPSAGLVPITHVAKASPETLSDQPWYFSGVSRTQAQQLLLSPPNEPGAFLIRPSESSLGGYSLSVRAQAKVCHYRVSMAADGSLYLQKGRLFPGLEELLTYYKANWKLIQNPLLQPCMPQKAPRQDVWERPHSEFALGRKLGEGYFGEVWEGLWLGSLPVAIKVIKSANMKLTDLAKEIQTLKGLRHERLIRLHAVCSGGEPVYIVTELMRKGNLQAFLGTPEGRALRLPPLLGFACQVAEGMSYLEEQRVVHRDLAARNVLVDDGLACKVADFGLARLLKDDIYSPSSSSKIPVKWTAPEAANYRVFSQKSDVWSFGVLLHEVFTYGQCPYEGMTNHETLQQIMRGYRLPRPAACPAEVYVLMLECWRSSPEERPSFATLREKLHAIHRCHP
UniProt Q6P2M8, sequence (whole entry, looked up): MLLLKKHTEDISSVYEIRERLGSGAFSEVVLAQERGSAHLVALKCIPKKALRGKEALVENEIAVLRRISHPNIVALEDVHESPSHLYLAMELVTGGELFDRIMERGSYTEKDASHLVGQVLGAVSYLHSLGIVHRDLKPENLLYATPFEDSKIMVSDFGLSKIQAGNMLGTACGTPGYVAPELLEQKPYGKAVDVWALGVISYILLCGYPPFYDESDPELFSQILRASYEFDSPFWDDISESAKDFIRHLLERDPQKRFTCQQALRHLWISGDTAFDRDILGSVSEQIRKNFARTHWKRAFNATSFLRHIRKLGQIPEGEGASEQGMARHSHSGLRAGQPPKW

Study 1 — effect on: enzyme activity; action: inhibitor; tested at: 77 µM; relative to: untreated
Target: DNA polymerase theta, ATPase domain (POLQ, Homo sapiens, UniProt O75417)
UniProt O75417, sequence (whole entry, unmodified, looked up): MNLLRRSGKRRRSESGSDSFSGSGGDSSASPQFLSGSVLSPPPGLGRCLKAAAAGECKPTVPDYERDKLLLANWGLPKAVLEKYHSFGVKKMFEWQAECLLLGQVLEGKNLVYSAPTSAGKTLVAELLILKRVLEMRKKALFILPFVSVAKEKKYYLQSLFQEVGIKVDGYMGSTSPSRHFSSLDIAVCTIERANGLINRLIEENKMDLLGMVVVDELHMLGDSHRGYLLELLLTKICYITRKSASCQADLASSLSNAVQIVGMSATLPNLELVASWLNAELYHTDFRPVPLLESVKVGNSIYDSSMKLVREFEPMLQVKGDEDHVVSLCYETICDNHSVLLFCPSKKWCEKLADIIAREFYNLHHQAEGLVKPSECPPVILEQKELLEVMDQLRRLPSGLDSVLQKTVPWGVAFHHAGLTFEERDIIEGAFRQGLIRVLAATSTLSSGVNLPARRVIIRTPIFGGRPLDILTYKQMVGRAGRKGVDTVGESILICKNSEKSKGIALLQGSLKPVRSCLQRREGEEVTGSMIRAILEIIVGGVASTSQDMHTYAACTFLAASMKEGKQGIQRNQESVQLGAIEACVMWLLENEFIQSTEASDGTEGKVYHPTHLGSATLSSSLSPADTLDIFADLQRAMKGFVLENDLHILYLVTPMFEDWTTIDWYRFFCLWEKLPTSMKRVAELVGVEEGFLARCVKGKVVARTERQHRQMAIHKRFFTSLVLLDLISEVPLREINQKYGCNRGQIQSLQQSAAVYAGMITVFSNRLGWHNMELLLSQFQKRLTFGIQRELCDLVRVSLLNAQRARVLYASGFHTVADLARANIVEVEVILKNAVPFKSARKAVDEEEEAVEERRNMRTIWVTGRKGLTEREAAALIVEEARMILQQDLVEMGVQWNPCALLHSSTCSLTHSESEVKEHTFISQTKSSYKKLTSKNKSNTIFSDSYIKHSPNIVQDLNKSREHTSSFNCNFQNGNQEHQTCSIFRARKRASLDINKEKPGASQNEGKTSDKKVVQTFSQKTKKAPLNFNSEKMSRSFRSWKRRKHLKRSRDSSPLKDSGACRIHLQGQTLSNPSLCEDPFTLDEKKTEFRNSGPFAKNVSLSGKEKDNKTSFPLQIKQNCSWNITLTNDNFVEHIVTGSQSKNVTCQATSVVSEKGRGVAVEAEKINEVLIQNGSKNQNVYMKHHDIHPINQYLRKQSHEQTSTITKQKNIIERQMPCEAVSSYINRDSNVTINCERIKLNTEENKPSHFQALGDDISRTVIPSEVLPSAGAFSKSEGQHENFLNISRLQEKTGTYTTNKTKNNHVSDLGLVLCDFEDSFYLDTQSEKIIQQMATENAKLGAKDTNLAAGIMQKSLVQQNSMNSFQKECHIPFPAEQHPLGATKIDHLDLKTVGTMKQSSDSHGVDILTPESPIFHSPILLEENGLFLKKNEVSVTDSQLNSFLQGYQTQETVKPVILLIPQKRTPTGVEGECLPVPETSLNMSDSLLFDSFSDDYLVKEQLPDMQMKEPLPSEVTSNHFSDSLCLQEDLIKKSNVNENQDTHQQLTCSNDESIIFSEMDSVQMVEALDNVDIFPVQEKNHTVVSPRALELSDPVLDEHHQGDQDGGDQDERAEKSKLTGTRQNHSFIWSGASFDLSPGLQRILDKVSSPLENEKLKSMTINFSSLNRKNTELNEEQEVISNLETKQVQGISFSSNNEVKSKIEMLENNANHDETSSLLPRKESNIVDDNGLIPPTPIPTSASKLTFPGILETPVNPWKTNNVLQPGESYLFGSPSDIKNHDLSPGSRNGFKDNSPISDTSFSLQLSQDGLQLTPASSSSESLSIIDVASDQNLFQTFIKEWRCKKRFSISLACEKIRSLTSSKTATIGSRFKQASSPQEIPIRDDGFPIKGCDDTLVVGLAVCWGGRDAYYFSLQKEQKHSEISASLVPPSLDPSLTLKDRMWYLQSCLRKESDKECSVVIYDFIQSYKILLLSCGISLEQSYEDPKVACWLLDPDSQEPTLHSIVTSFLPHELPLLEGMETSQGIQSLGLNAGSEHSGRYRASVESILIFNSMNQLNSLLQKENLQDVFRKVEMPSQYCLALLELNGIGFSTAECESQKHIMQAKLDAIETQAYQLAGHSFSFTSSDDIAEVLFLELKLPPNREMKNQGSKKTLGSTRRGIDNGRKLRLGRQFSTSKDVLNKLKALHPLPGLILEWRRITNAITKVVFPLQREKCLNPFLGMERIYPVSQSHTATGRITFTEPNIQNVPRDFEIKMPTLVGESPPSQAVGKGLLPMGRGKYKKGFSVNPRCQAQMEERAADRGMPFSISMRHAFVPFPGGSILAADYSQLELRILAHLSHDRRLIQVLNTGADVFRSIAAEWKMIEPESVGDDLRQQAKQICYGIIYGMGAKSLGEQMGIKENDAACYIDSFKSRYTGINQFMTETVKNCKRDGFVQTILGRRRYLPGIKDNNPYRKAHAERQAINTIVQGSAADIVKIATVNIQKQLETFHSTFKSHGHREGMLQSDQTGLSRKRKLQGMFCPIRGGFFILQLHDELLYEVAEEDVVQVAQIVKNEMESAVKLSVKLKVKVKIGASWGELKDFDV
| Compound | remaining activity [%] |
| --- | --- |
| c1ccc2c(Oc3nc(Nc4ccc(N5CCOCC5)cc4)c4ncn(C5CCCCC5)c4n3)cccc2c1 | 101 |
| Cn1c(N2CCCCS2(=O)=O)nc(C(=O)NCc2ccc(F)cc2)c(O)c1=O | 103 |
| CO[C@@]1(NC(=O)C2SC(=C(C(N)=O)C(=O)O)S2)C(=O)N2C(C(=O)O)=C(CSc3nnnn3C)CS[C@@H]21 (stereo partly drawn) | 94.3 |
| CC(C)c1ccc(NC(=O)Cn2cnc3c2c(=O)n(C)c(=O)n3C)cc1 | 81.1 |
| O=C1NC(=O)/C(=C/c2ccc3nccc(-c4ccncc4)c3c2)S1 | 89.2 |
| O=C(CCCCCCNC(=O)c1cnc(N(c2ccccc2)c2ccccc2)nc1)NO | 101 |
| Nc1ccc(S(=O)(=O)NC(=O)c2ccccc2)cc1 | 90.5 |
| O=C(N/N=C/c1ccc(O)c(O)c1)c1cc2ccccc2cc1O | 95.7 |
| COc1ccccc1N1CCN(CCCCNC(=O)c2ccc3ccccc3c2)CC1 | 99.5 |
| CC(C)[C@H](N)C(=O)OCCOCn1cnc2c(=O)nc(N)[nH]c21 | 100 |
| c1cc(-c2cnn3cc(-c4ccc(OCCN5CCCCC5)cc4)cnc23)ccn1 | 85.4 |

Study 2 — effect on: enzyme activity; action: inhibitor; tested at: 0.5 µM; relative to: control
Target: Mitogen-activated protein kinase kinase kinase 7 (MAP3K7, Homo sapiens, UniProt O43318)
UniProt O43318, sequence (whole entry, looked up): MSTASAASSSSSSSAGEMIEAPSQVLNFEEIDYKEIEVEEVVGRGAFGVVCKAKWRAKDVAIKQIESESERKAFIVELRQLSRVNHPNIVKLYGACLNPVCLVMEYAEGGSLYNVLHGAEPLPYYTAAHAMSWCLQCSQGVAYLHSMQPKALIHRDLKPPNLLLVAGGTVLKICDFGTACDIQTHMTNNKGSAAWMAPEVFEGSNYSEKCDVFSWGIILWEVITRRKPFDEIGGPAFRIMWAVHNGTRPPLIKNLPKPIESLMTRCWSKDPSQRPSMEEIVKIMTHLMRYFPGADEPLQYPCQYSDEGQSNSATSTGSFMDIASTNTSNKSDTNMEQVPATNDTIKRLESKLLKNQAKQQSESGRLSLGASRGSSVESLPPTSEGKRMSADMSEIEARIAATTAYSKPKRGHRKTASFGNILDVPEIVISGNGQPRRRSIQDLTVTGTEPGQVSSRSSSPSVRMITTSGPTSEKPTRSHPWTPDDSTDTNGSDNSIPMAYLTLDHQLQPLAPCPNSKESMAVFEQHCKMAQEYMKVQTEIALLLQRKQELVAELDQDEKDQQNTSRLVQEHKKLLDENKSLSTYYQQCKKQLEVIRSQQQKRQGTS
| Structure (SMILES) | remaining activity |
| --- | --- |
| CC(C)N(CCC(=O)c1ccc2ccccc2c1)Cc1ccccc1 | 95.4% |
| COc1cc2c(Nc3ccc(Br)cc3F)ncnc2cc1OCC1CCN(C)CC1 | 93.9% |
| N#CC(c1ccnc(NCCc2cccnc2)n1)c1nc2ccccc2s1 (stereo not drawn) | 91.5% |
| CC(C)n1cnc2c(Nc3cccc(Cl)c3)nc(NCCO)nc21 | 92.7% |
| FC(F)(F)c1ccc(/C=C/c2nc(COc3ccc(CCCCn4ccnn4)cc3)co2)cc1 | 88.7% |
| CCN(CC)CCCCN1c2ccccc2Oc2ccc(Cl)cc21 | 102% |
| O=C1NC(=O)/C(=C/c2ccc3c(c2)OC(F)(F)O3)S1 | 95.3% |
| COc1cc2c(N3CCN(C(=O)Nc4ccc(OC(C)C)cc4)CC3)ncnc2cc1OCCCN1CCCCC1 | 91.8% |
| N#C/C(=C(/N)SC1C=CC=CC1)c1cccc(C(O)c2ccncc2)c1 (stereo not drawn) | 108% |
| C[C@@H](N)[C@H]1CC[C@H](C(=O)Nc2ccncc2)CC1 | 96.8% |
| CC(C)(C)c1nc2c3cc[nH]c(=O)c3c3cc(F)ccc3c2[nH]1 | 46.6% |
| O=C(O)/C=C/c1cc(Br)c(Br)c(Br)c1Br | 98.4% |
| O=c1c(-c2ccc(F)cc2)c(-c2ccncc2)[nH]n1-c1ccc(Cl)cc1 | 100% |
| NC(=O)c1ccc(-c2nc(-c3ccc4c(c3)OCCO4)c(-c3ccccn3)[nH]2)cc1 | 104% |
| Clc1ccc(Nc2nnc(Cc3ccncc3)c3ccccc23)cc1 | 99.6% |
| O=C(c1ccccc1)c1ccc(N2CCOCC2)cc1O | 101% |
| O=C1c2ccccc2-c2nc3nnnn3nc21 | 89.8% |
| Nc1nc(Nc2ccc(S(N)(=O)=O)cc2)nn1C(=S)Nc1c(F)cccc1F | 12.5% |
| CCCCc1c(-c2ccc(O)cc2)[nH]c2nccnc12 | 80.3% |
| CNc1cc2c(Nc3cccc(Br)c3)ncnc2cn1 | 94.9% |
| c1cc(-c2cnn3cc(-c4ccc(OCCN5CCCCC5)cc4)cnc23)ccn1 | 49.7% |
| NC(=O)c1cccc(-c2cc(Nc3ccc(OC(F)(F)F)cc3)ncn2)c1 | 99.1% |

Study 3 — effect on: enzyme activity; action: inhibitor; tested at: 10 µM
Target: Calcium/calmodulin-dependent protein kinase type II subunit alpha (CAMK2A, Homo sapiens, UniProt Q9UQM7)
UniProt Q9UQM7, sequence (whole entry, looked up): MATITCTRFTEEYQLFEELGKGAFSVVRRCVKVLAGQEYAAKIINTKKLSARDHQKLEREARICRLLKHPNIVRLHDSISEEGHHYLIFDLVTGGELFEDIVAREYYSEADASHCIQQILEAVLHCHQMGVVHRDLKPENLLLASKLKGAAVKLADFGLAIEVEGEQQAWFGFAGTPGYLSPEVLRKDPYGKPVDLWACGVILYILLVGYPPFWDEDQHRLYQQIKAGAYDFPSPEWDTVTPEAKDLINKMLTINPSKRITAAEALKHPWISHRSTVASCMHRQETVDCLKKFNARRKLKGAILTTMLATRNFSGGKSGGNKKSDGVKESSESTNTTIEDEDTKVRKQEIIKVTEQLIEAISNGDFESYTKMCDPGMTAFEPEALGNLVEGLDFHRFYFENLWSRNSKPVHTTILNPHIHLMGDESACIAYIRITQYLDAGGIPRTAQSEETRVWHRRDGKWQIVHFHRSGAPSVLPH
| Compound | inhibition |
| --- | --- |
| Cc1nccn1CCC(C(N)=O)(c1ccccc1)c1ccccc1 | -2% |
| Cc1cccc(Nc2ccccc2C(=O)O)c1C | 6% |
| O=c1cc(-c2ccc(O)cc2)oc2c([C@@H]3O[C@H](CO)[C@@H](O)[C@H](O)[C@H]3O)c(O)cc(O)c12 | 0% |
| CO[C@H]1C[C@H](O[C@@H]2/C(C)=C/C[C@@H]3C[C@@H](C[C@]4(CC[C@H](C)[C@@H](C5CCCCC5)O4)O3)OC(=O)[C@@H]3C=C(C)/C(=N/O)[C@H]4OC/C(=C\C=C\[C@@H]2C)[C@]43O)O[C@@H](C)[C@@H]1O | 3% |
| COC(=O)C1=COC(O[C@@H]2O[C@H](CO)[C@@H](O)[C@H](O)[C@H]2O)/C(=C/C(=O)O)C1CC(=O)OCCc1ccc(O)cc1 (stereo partly drawn) | -4% |
| O=c1c(O)c(-c2cc(O)c(O)c(O)c2)oc2cc(O)cc(O)c12 | -69% |
| CN1CC(O)C2=C/C(=N/NC(N)=O)C(=O)C=C21 (stereo not drawn) | 2% |
| Cc1ccc(-c2ccc(C)cn2)nc1 | -1% |
| CC(C)=CCC/C(C)=C/Cc1cc(-c2coc3cc(O)ccc3c2=O)ccc1O | 4% |
| CC(C)[C@@H]1NC(=O)[C@@H]2CCCN2C(=O)[C@H](C(C)C)NC(=O)CNC(=O)[C@H](C)NC(=O)[C@H](Cc2c[nH]c3ccccc23)NC1=O | 12% |
| Nc1nc2c(ncn2[C@@H]2O[C@H](CO)[C@@H](O)[C@H]2O)c(=O)[nH]1 | 25% |
| COc1ccc(-c2coc3cc(OC)ccc3c2=O)cc1 | -20% |
| O=S(=O)(O)Oc1ccc(C(c2ccc(OS(=O)(=O)O)cc2)c2ccccn2)cc1 | -2% |
| CC(=O)CC(c1ccc([N+](=O)[O-])cc1)c1c(O)c2ccccc2oc1=O (stereo not drawn) | 0% |
| O=c1cc(-c2ccccc2)c2cc(O)c(O)cc2o1 | -62% |

Study 4 — tested at: 0.1 µM
Structure (SMILES): CS(=O)(=O)N1CCCC(NC(=O)[C@H](CCC2CCCCC2)NC(=O)c2ccc(CNC(=O)c3cnc4ccccn34)cc2)C1 (stereo partly drawn)
| target | assay | remaining binding [%] |
| --- | --- | --- |
| Phosphatidylinositol 4,5-bisphosphate 3-kinase catalytic subunit delta isoform (PIK3CD, Homo sapiens, UniProt O00329) | cell-free assay, competition with immobilised ligand | 67 |
| Myosin-IIIb (MYO3B, Homo sapiens, UniProt Q8WXR4) | cell-free assay, competition with immobilised ligand | 89 |
| Mitogen-activated protein kinase kinase kinase kinase 1 (MAP4K1, Homo sapiens, UniProt Q92918) | cell-free assay, competition with immobilised ligand | 95 |
| Protein kinase C iota type (PRKCI, Homo sapiens, UniProt P41743) | cell-free assay, competition with immobilised ligand | 94 |
| Receptor-type tyrosine-protein kinase FLT3 (FLT3, Homo sapiens, UniProt P36888, D835V) | cell-free assay, competition with immobilised ligand | 61 |
| 5'-AMP-activated protein kinase catalytic subunit alpha-2 (PRKAA2, Homo sapiens, UniProt P54646) | cell-free assay, competition with immobilised ligand | 79 |
| Protein kinase C delta type (PRKCD, Homo sapiens, UniProt Q05655) | cell-free assay, competition with immobilised ligand | 100 |
| Interleukin-1 receptor-associated kinase 3 (IRAK3, Homo sapiens, UniProt Q9Y616) | cell-free assay, competition with immobilised ligand | 65 |
| Tyrosine-protein kinase ABL1, phosphorylated (ABL1, Homo sapiens, UniProt P00519, F317I) | binding | 85 |
| Serine/threonine-protein kinase B-raf (BRAF, Homo sapiens, UniProt P15056, V600E) | cell-free assay, competition with immobilised ligand | 51 |
| MAP kinase-activated protein kinase 2 (MAPKAPK2, Homo sapiens, UniProt P49137) | cell-free assay, competition with immobilised ligand | 76 |
| Tyrosine-protein kinase Srms (SRMS, Homo sapiens, UniProt Q9H3Y6) | cell-free assay, competition with immobilised ligand | 71 |
| Tyrosine-protein kinase ABL1, non-phosphorylated (ABL1, Homo sapiens, UniProt P00519, T315I) | cell-free assay, competition with immobilised ligand | 83 |
| Calcium/calmodulin-dependent protein kinase type 1B (PNCK, Homo sapiens, UniProt Q6P2M8) | cell-free assay, competition with immobilised ligand | 77 |
| Serine/threonine-protein kinase 32A (STK32A, Homo sapiens, UniProt Q8WU08) | cell-free assay, competition with immobilised ligand | 81 |

Repeated from above (study 2):
| Structure (SMILES) | remaining activity |
| --- | --- |
| CC(C)N(CCC(=O)c1ccc2ccccc2c1)Cc1ccccc1 | 95.4% |
| COc1cc2c(Nc3ccc(Br)cc3F)ncnc2cc1OCC1CCN(C)CC1 | 93.9% |
| N#CC(c1ccnc(NCCc2cccnc2)n1)c1nc2ccccc2s1 (stereo not drawn) | 91.5% |
| CC(C)n1cnc2c(Nc3cccc(Cl)c3)nc(NCCO)nc21 | 92.7% |
| FC(F)(F)c1ccc(/C=C/c2nc(COc3ccc(CCCCn4ccnn4)cc3)co2)cc1 | 88.7% |
| CCN(CC)CCCCN1c2ccccc2Oc2ccc(Cl)cc21 | 102% |
| O=C1NC(=O)/C(=C/c2ccc3c(c2)OC(F)(F)O3)S1 | 95.3% |
| COc1cc2c(N3CCN(C(=O)Nc4ccc(OC(C)C)cc4)CC3)ncnc2cc1OCCCN1CCCCC1 | 91.8% |
